Published values collected from several papers.
Every numbered part comes from another study and shows a few of its results, in no order. Positions count from the first letter of the parent shown.

Series 1
Target: RNA binding protein fox-1 homolog 2, RRM domain, GST-SBP tag (RBFOX2, Homo sapiens, UniProt O43251-10, residues 100-194)
Technique: RNA Bind-n-Seq
Form: RNA
Sample: in vitro
Concentration: 365 nM
Notes: natural RNA segment, single round, ends assumed
Reference: no-protein control
Direction: higher = stronger binding
Residues (chain): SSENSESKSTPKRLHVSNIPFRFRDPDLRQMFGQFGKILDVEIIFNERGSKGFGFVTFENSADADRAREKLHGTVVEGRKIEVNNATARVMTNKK
For `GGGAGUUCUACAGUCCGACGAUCUCUCUGGUGAGAGGUGGGUUUGAUGUAUCUCUGUCCUAUGCUGGUCUCUCUUCUCCUUUAUAAAAUCCUCUGUGGUCAACUGACUACUGCGUAUCGCAGUGGAAUAAGACUGGAAUUCUCGGGUGCCAA`, “RBNS enrichment (R)” read 0.31.
Under “RBNS enrichment (R)”, `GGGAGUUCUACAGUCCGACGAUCUAGAUCUAUUUGACUUAAUAAGUAGGAACCCCCUUUGCCCUUCCCCCAUCUCCUCUCCCUUACUGUAGCAUUUCUGUCAUGUAAGAGGUGCUGACAGCCACUUCCGUGUCUGGAAUUCUCGGGUGCCAA` is recorded as 0.772.
`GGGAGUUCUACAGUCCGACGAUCUUUUUGGUAGAUCGUGGUAGAUCUGGUACUCCUAACUCCCUGGUCCUCAGGCGGCUCCUCUGUAAAAUGAGAAAAUGUAUAUUUUUUUACUUCAUGAGAUCUUUGCUGGAUGGAAUUCUCGGGUGCCAA` — result for “RBNS enrichment (R)”: 0.316.
For `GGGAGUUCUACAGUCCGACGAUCCCCUAAUGCUGGUCUCUGCUCCACUCCCCGGCUUCCCGUGAGGCAGGAGGCAGAGCCACAGCCAAGGCCCUGACCACUUCUGUGCCAGUUGUCUAAGCAGAGCGCCUCAGUGGAAUUCUCGGGUGCCAA`, “RBNS enrichment (R)” read 0.167.
Under “RBNS enrichment (R)”, `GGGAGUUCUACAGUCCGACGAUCGACAGGUUACUUGGUGUAUCUUCUGUUAAAGAGGAUUGCACGAGUGUGUUUUCCUCACACACUUUGAUUUGGAGAAUUGGUGCUAGUUGGCAAUAGAUAACUCAGCGUAGUGGAAUUCUCGGGUGCCAA` is recorded as 0.3.
For `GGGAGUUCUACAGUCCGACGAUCGGUGGUCCCAUAGGUCUUGUGAAAAGGCUUUUUCAGGGAAAAAUAUUUUACUAGUCCAAUCACCCCCAGGACCUCUUCAGCUGCUGACAAUCCUAUUUAGCAUAUGCAAAUGGAAUUCUCGGGUGCCAA`, “RBNS enrichment (R)” read 0.33.
Under “RBNS enrichment (R)”, `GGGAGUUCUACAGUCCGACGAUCGGUCAUCUCUCCGUUCACACCCGAGGCUACACCUGAGGCUGAUUUCCUAAGGCUCCCUCCCAGGCAAGUGCCCACCAGCAAGUUCACCACAGAGCCUGAAGCCCACACUCUGGAAUUCUCGGGUGCCAA` is recorded as 0.341.
`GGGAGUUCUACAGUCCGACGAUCUCCUUCAUUCAGGGUUACUGACCUACUGUCCAGGGCUUGAUAGGUAAGGCAGCUUGUUGGCCCUUGUUACAGUAUCUUAGUGUACCCUCCUGUUACAGCUUCCACACUCAUGGAAUUCUCGGGUGCCAA` — result for “RBNS enrichment (R)”: 0.357.
Under “RBNS enrichment (R)”, `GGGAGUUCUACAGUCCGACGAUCGUUUUUACAGACAACAUCGAGUAAUGGCUUGUAAAUGUGAAUUUUGCCAGAGGUGGUUUUUGAACAGGAAAAUCAUAAUUCAUAUCAUUGGAGAAGUAUUUAUUUUCAAAUGGAAUUCUCGGGUGCCAA` is recorded as 0.517.
`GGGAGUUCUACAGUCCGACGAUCUAAAUCUAACCUGACUUAAACAUAUGCCUGUUUUUAUGUUUACCUAUAAUUUUCAUAUAGCCGUAUAAGGAUUGAUUUACCAUUUUUUGCCCAACAUGACAAUUCUGGCUUGGAAUUCUCGGGUGCCAA`: “RBNS enrichment (R)” 3.75.
`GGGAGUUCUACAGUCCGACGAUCGAAGGCCAGCCCUUACCCCAACACCCACUUCCCCACCUCCUUAGGCCCCAGAUACAUACAUGCCCACAUGCACGCUUACAUGUUUAGAGCCAUCCUUGUUUCCAAAUAUGUGGAAUUCUCGGGUGCCAA`: “RBNS enrichment (R)” 2.78.
`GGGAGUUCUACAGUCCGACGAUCUCCUGCUUCCCACUAUCCUUUUCCUGUUAUUAUUCAAAUUUUACACAAGGACUAAUCCUGGGUGUCUCUGAGACCCAUCUCCUGCCUAGACAUCCACCUCCAGAGCAACAUGGAAUUCUCGGGUGCCAA` — result for “RBNS enrichment (R)”: 0.942.

Series 2
Target: Protein C-ets-1 (ETS1, Homo sapiens, UniProt P14921, residues 1-441, K379A, full length assumed)
Technique: protein-binding microarray
Form: double-stranded DNA, one strand shown
Sample: in vitro
Concentration: not given
Notes: k-mer, scored over probes, only values ≥0.25
Direction: higher = stronger binding
Construct (chain): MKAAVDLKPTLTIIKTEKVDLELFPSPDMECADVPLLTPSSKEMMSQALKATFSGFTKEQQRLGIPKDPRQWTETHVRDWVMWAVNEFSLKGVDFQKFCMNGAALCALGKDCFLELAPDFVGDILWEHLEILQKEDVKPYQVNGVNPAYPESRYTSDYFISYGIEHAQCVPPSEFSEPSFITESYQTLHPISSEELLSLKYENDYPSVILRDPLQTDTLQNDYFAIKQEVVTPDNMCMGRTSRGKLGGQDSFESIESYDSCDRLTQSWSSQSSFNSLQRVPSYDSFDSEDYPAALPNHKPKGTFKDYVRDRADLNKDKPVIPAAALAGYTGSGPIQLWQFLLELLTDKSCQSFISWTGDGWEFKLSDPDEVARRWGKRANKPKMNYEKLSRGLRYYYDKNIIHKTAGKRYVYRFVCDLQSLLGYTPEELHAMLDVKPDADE
For `ATTGTACA`, the E-score was 0.267.
The E-score of `ACCGCAAC` is reported as 0.318.
With `CCGGAGCG` the E-score was 0.277.
`ATTAACCG` gave an E-score of 0.301.
The E-score of `CACCGACA` is reported as 0.42.
The E-score of `AGGCGGGG` is reported as 0.315.
For `TGACGTCA`, the E-score was 0.305.
For `CCCGCCGC`, the E-score was 0.342.
`ACAATACC` gave an E-score of 0.319.
With `CGGAAGTC` the E-score was 0.402.
`ATATCCGG` has an E-score of 0.403.
`ATTCTACA` gave an E-score of 0.26.
`CATATACC` gave an E-score of 0.29.
The E-score of `CCCACCCC` is reported as 0.454.
`CGGGGAAC` has an E-score of 0.383.
For `AGGAAATG`, the E-score was 0.263.
`CGACGGTA` gave an E-score of 0.325.
The E-score of `TATACCGA` is reported as 0.262.
`CCGGCGGC` gave an E-score of 0.316.
For `AAGTCGAC`, the E-score was 0.256.

Series 3
Target: Prothrombin, mature alpha-thrombin (F2, Homo sapiens, UniProt P00734)
Technique: aptamer microarray, sandwich
Form: DNA with 2'F-ANA
Sample: in vitro
Concentration: 200 nM
Notes: whole 15-mer aptamer, many near background
With: Cy3 exosite-II aptamer, 400 nM
Direction: higher = stronger binding
Oligonucleotide: GGTTGGTGTGGTTGG
For `2'F-ANA at 1 5 6 9 10 12 14`, “mean fluorescence intensity” read 45.4 a.u.
Under “mean fluorescence intensity”, `2'F-ANA at 3 4 5 8 10 11 12 13 15` is recorded as 54.2 a.u.
Under “mean fluorescence intensity”, `2'F-ANA at 4 9 10 12 14` is recorded as 85.2 a.u.
`2'F-ANA at 1 4 6 10 11 13`: “mean fluorescence intensity” 56.1 a.u.
`2'F-ANA at 2 4 6 7 8 9 11 12 15`: “mean fluorescence intensity” 379 a.u.
`2'F-ANA at 1 2 5 11 13`: “mean fluorescence intensity” 47 a.u.
Under “mean fluorescence intensity”, `2'F-ANA at 2 5 6 7 8 9 12 13` is recorded as 117 a.u.
Under “mean fluorescence intensity”, `2'F-ANA at 1 5 9 10` is recorded as 58.5 a.u.
For `2'F-ANA at 2 4 5 6 9 11 12 13 14 15`, “mean fluorescence intensity” read 46.7 a.u.
Under “mean fluorescence intensity”, `2'F-ANA at 1 3 4 5 8 11 13 14 15` is recorded as 50 a.u.
`2'F-ANA at 3 8 9 12 13 14` — result for “mean fluorescence intensity”: 686 a.u.
`2'F-ANA at 1 3 5 6 7 8 12 13`: “mean fluorescence intensity” 108 a.u.
Under “mean fluorescence intensity”, `2'F-ANA at 1 4 5 12 15` is recorded as 102 a.u.
`2'F-ANA at 1 5 8 9 10 11 12` — result for “mean fluorescence intensity”: 45.7 a.u.
For `2'F-ANA at 3 4 5 7 8 9 10 12 13 15`, “mean fluorescence intensity” read 54.7 a.u.
Under “mean fluorescence intensity”, `2'F-ANA at 1 5 6 8 9 10 11 14 15` is recorded as 65.8 a.u.

Series 4
Target: Histone acetyltransferase KAT6A, winged helix 1, GST fusion (KAT6A, Homo sapiens, UniProt Q92794, residues 1-85)
Technique: protein binding microarray
Form: double-stranded DNA, one strand shown
Sample: in vitro
Concentration: not given
Notes: 8-mer, flanks averaged, mean of 2 arrays, mostly near background
Reference: not given
Direction: higher = stronger binding
Residues (chain): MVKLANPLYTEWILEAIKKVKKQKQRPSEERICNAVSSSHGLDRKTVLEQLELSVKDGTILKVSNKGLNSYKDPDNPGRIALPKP
`AGTACGCC` has an E-score of 0.208.
For `AGGTTAGG`, the E-score was -0.299.
For `CAGAATGC`, the E-score was 0.174.
`GTCAAAAA` gave an E-score of -0.242.
With `ATTCTGTC` the E-score was -0.0431.
`CAAGGGTC` has an E-score of 0.000875.
With `ATCGTCAA` the E-score was -0.0876.
For `AATTTTGC`, the E-score was -0.124.
With `GTACCTGA` the E-score was -0.0402.
With `ATCAAGCG` the E-score was 0.226.
`GCGGTATA` has an E-score of 0.266.
With `AGGGGTCG` the E-score was -0.044.
`TCTGGACA` gave an E-score of -0.145.
`AATTTATC` gave an E-score of -0.0674.
For `CGCAATGC`, the E-score was 0.289.
`AATTGTAT` gave an E-score of -0.163.
The E-score of `CATAGAGC` is reported as 0.0382.
For `ACGCGCTC`, the E-score was 0.356.
`AACCCCGC` has an E-score of 0.317.
For `AGGTGTCG`, the E-score was 0.105.
With `AGGCGACA` the E-score was 0.0371.
The E-score of `CACGGTGA` is reported as -0.0418.
For `CTCATACA`, the E-score was -0.123.
With `CGATAAAG` the E-score was 0.0822.
With `CCCCAGGA` the E-score was -0.14.

Series 5
Target: CCND1, cyclin fold, Cln2 fusion (human)
Technique: yeast growth competition, sequencing
Sample: yeast
Notes: weak parent motif
Reference: not given
Direction: higher = stronger binding
Starting sequence: MICAL3 docking peptide (human); LQLRRQLSFSEDS
Under “normalised enrichment score”, `LQLRRQLSFSRDS [E11R]` is recorded as 0.128.
Under “normalised enrichment score”, `LQLGRQLSFSEDS [R4G]` is recorded as 0.342.
`LSLRRQLSFSEDS [Q2S]` — result for “normalised enrichment score”: 0.668.
`LQWRRQLSFSEDS [L3W]`: “normalised enrichment score” -0.121.
`LQLRRQMSFSEDS [L7M]`: “normalised enrichment score” 0.224.
`LQLRRQLSFPEDS [S10P]` — result for “normalised enrichment score”: 0.205.
For `LQLRRQLSFSNDS [E11N]`, “normalised enrichment score” read 0.365.
`LQLRRQLWFSEDS [S8W]` — result for “normalised enrichment score”: -0.119.
`LQLRRQLIFSEDS [S8I]`: “normalised enrichment score” 0.127.
For `LNLRRQLSFSEDS [Q2N]`, “normalised enrichment score” read 0.656.
For `LQLTRQLSFSEDS [R4T]`, “normalised enrichment score” read 0.0474.
`LQLRRQGSFSEDS [L7G]` — result for “normalised enrichment score”: 0.0111.
For `LQLRRQLDFSEDS [S8D]`, “normalised enrichment score” read 0.165.
`LQCRRQLSFSEDS [L3C]`: “normalised enrichment score” 1.19.
For `LQLRRQLSKSEDS [F9K]`, “normalised enrichment score” read 0.0714.
`LMLRRQLSFSEDS [Q2M]` — result for “normalised enrichment score”: 0.405.
Under “normalised enrichment score”, `LFLRRQLSFSEDS [Q2F]` is recorded as 0.337.
Under “normalised enrichment score”, `LQKRRQLSFSEDS [L3K]` is recorded as -0.188.
`LQLRRQLSESEDS [F9E]` — result for “normalised enrichment score”: 0.0678.
Under “normalised enrichment score”, `LQLRRQLMFSEDS [S8M]` is recorded as -0.12.
`LQLRRQLSFSCDS [E11C]`: “normalised enrichment score” 0.128.
`LQLRRQLCFSEDS [S8C]` — result for “normalised enrichment score”: -0.0612.
`LQLRRQQSFSEDS [L7Q]`: “normalised enrichment score” -0.089.
